Published values from different studies.
Every numbered part comes from another study and shows a few of its results, in no order. Changes are numbered by the printed parent chain.

Set 1
Target: CCNB1, cyclin fold, Cln2 fusion (human)
Technique: yeast growth competition, sequencing
Sample: yeast
Notes: weak parent motif
Baseline: not given
Reading: higher = stronger binding
Endpoint: normalised enrichment score
Parent: ASZ1 docking peptide (human); GFGFLLFICKLTF
AFGFLLFICKLTF [G1A]: 0.745
GFGFLLAICKLTF [F7A]: -0.0845
GFAFLLFICKLTF [G3A]: 0.756
GFGFLLFICKLAF [T12A]: 0.33
GAGFLLFICKLTF [F2A]: 0.3
GFGFLLFICKLTA [F13A]: 0.592

Set 2
Target: ABI1, truncated, D143A, DHFR fusion (Arabidopsis thaliana)
Technique: DHFR PCA, deep sequencing
Sample: yeast
Notes: methotrexate growth selection, single substitutions
With: (+)-ABA 0 µM
Baseline: wild-type fitted maximum
Reading: higher = stronger binding
Endpoint: relative binding score
Parent: PYL1, truncated, DHFR fusion (Arabidopsis thaliana); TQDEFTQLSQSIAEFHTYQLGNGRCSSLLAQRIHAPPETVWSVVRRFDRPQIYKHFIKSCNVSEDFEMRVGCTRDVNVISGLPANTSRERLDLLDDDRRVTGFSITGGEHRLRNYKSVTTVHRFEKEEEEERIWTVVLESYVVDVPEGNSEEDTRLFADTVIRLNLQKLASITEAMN; partner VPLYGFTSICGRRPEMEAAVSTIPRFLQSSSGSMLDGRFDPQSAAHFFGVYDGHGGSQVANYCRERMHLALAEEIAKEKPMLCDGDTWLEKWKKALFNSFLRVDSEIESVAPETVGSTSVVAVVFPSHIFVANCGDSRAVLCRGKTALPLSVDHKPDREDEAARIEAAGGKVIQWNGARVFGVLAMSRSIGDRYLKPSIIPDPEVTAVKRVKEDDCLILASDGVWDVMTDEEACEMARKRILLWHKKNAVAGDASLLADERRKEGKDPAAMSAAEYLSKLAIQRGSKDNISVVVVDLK
S87D: -1.01%
R24D: -0.597%
K54R: 16.7%
L82Q: 6.68%
L112M: 17.4%
R88I: 29.4%
N61V: 49.6%
R111T: 3.14%

Set 3
Target: Hepatocyte nuclear factor 3-beta, forkhead domain (FOXA2, Homo sapiens, UniProt Q9Y261, residues 142-269)
Technique: protein-binding microarray
Form: double-stranded DNA, one strand shown
Sample: in vitro
Concentration: not given
Notes: k-mer, scored over probes, only values ≥0.25
Reading: higher = stronger binding
Endpoint: E-score
Target sequence (chain): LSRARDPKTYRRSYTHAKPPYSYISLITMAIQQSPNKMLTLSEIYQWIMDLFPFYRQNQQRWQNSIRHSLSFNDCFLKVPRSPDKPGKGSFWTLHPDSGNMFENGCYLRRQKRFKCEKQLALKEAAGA
AATATATT: 0.31
ATTCGATA: 0.291
TTGATCAA: 0.294
CATAATAA: 0.26
GCTATACA: 0.284
ACTATATG: 0.309
TGCAATAA: 0.277
AAGGACAT: 0.305
TACGGCAA: 0.281
ATACAAAT: 0.355
ATACACAA: 0.399
ATCAATAG: 0.281

Other studies, line by line
PhoQ, residues 284 288 289 292 302 303 SMMNNA
fold induction (PhoP, residues 12 14 15 18 19 GHCSL (Escherichia coli, UniProt P23836); Sort-seq, item: YFP reporter; E. coli; PhoQ-PhoP variant library, with: 10 µM Mg2+; baseline: high Mg2+ state, higher = stronger signaling): 22.3

For quick reference, copied from above (set 3):
AAGGACAT: 0.305
ACTATATG: 0.309
AATATATT: 0.31
TTGATCAA: 0.294
